Results of several laboratories.
Each line is one published result; not all experiments were run side by side. Numbers after ± are the reported error.

For `CC[C@@H]1C(=O)N(C)c2cnc(Nc3ccc(C(=O)N[C@H]4CC[C@H](N5CCN(CC6CC6)CC5)CC4)cc3OC)nc2N1C(C)C`, the Vss was 3540 L (non-compartmental analysis; human, plasma; intravenous infusion, 450 mg (first infusion)).
The bioavailability of `Cc1cc(C(=O)NC(C)(C)COc2cccc3c2C(N)=NS(=O)(=O)N3)cc(C)n1` is reported as 0.36% (male Sprague-Dawley rat, plasma; oral, 10 mg/kg, single dose).
With `CC(C)[C@H](NC(=O)[C@@H]1CCCN1C(=O)[C@H](CCCNC(=N)N)NC(=O)[C@H](CS)NC(=O)[C@H](Cc1c[nH]c2ccccc12)NC(=O)[C@H](CCCNC(=N)N)NC(=O)[C@@H](Cc1ccccc1)NC(=O)[C@H](Cc1c[nH]cn1)NC(=O)[C@H](CCC(=O)O)NC(=O)[C@H](CS)NC(=O)[C@H](CS)NC(=O)[C@H](CCCCN)NC(=O)[C@@H]1CC(=O)N[C@@H](CCCNC(=N)N)C(=O)N[C@@H]([C@@H](C)O)C(=O)N[C@@H](CC(=O)O)C(=O)N[C@H](Cc2ccc(O)cc2)C(=O)N1)C(N)=O` [technetium-99m labelled] the uptake ratio was 8.64 (C57 mouse, female, B16/F1 melanoma; intravenous, 2 h, with: NDP-MSH 10 µg co-injected; relative to: tumour over muscle).
For `CC(C)Cc1ccc(C(C)C(=O)O)cc1` (stereo not drawn), the EC20 was over 200 µM (mitochondrial swelling; BALB/cByJ female mouse liver mitochondria; 30 min, with: succinate + rotenone; relative to: CaCl2 maximal swelling).
For `COc1c(O)cc2oc3cc(O)cc(O)c3c(=O)c2c1C/C=C(\C)CCC=C(C)C`, the AUC(0-inf) was 561000 ± 78200 ng·h/mL (UHPLC, non-compartmental; mice, plasma; oral, 700 mg/kg, virgin coconut oil suspension).
`CCCCC1C(=O)N(c2ccccc2)N(c2ccccc2)C1=O` gave an EC20 of over 400 µM (mitochondrial swelling; BALB/cByJ female mouse liver mitochondria; 30 min, with: succinate + rotenone; relative to: CaCl2 maximal swelling).
`Cc1ccc(NC(=O)c2ccc(CN3CCN(C)CC3)cc2)cc1Nc1nccc(-c2cncc(-c3oncc3C)c2)n1` has an AUC(0-tau) of 97200 ng·h/mL (healthy volunteers, plasma; oral, 200.0 mg once daily, day 7, 7-day dosing, mean).
With `Cn1c(-c2ccc(C(N)=O)cc2F)nnc1C(C)(C)Oc1c(F)cc(Cl)cc1F` the AUC(0-tau) mean was 2620 ng·h/mL (healthy young Japanese subjects, plasma; oral, 20 mg once daily, day 18, 14 days dosing).
With `CCOC(=O)c1nn(C(=O)C2CC2)c2ccncc12` the half-life was over 4 h (chemical stability; aqueous buffer; pH 7.4).
`CO[C@H]1C[C@@H]2CC[C@@H](C)[C@@](O)(O2)C(=O)C(=O)N2CCCC[C@H]2C(=O)O[C@H]([C@H](C)C[C@@H]2CC[C@@H](O)[C@H](OC)C2)CC(=O)[C@H](C)/C=C(\C)[C@@H](O)[C@@H](OC)C(=O)[C@H](C)C[C@H](C)/C=C/C=C/C=C/1C` gave an AUC of 1080 ng·h/mL (human, whole blood; oral, 20 mg, mean).
`CC(C)CCCCC(=O)N[C@@H](CCN)C(=O)N[C@H](C(=O)N[C@@H](CCN)C(=O)N[C@H]1CCNC(=O)[C@H]([C@@H](C)O)NC(=O)[C@H](CCN)NC(=O)[C@H](CCN)NC(=O)[C@H](CC(C)C)NC(=O)[C@@H](Cc2ccccc2)NC(=O)[C@H](CCN)NC1=O)[C@@H](C)O` gave a free Cmin of 70 ng/mL (equilibrium dialysis LC-MS/MS; human patients, plasma; dose not given, median).
The EC20 of `O=C(O)c1ccccc1Nc1cccc(C(F)(F)F)c1` is reported as over 200 µM (mitochondrial swelling; BALB/cByJ female mouse liver mitochondria; 30 min, with: succinate + rotenone; relative to: CaCl2 maximal swelling).
`CCCCCCCCCCCCCCCCNC` — result for “in vivo intrinsic clearance”: 10 mL/h/g liver (liver S9 substrate depletion; rainbow trout liver S9; six-surfactant mixture).
For `CCCC[C@@H]1NC(=O)[C@@H](NC(=O)[C@H](CCC(=O)O)NC(=O)CNC(=O)CN2CCN(CC(=O)O)CCN(CC(=O)O)CCN(CC(=O)O)CC2)CCCCNC(=O)C[C@@H](C(N)=O)NC(=O)[C@H](C(C)C)NC(=O)[C@@H]2CCCN2C(=O)[C@H](CCCNC(=N)N)NC(=O)CNC(=O)[C@H](Cc2c[nH]c3ccccc23)NC(=O)[C@H](CCCNC(=N)N)NC(=O)[C@@H](Cc2ccccc2)NC(=O)[C@H](Cc2c[nH]cn2)NC(=O)[C@H](CCC(=O)O)NC1=O` [indium-111 labelled], the tissue uptake was 0.11 ± 0.05 %ID/g (C57 mice, B16/F10 lung metastatic melanoma, spleen; intravenous, 0.037 MBq, 4 h).
`C#C[C@]1(CO)O[C@@H](n2cnc3c(N)nc(F)nc32)C[C@@H]1O` has an AUC(0-168 h) of 3.98 µM·h (human, plasma; oral, 30 mg once weekly, week 3).

Repeated from above:
`CCCCCCCCCCCCCCCCNC` — result for “in vivo intrinsic clearance”: 10 mL/h/g liver (liver S9 substrate depletion; rainbow trout liver S9; six-surfactant mixture).
For `CCCC[C@@H]1NC(=O)[C@@H](NC(=O)[C@H](CCC(=O)O)NC(=O)CNC(=O)CN2CCN(CC(=O)O)CCN(CC(=O)O)CCN(CC(=O)O)CC2)CCCCNC(=O)C[C@@H](C(N)=O)NC(=O)[C@H](C(C)C)NC(=O)[C@@H]2CCCN2C(=O)[C@H](CCCNC(=N)N)NC(=O)CNC(=O)[C@H](Cc2c[nH]c3ccccc23)NC(=O)[C@H](CCCNC(=N)N)NC(=O)[C@@H](Cc2ccccc2)NC(=O)[C@H](Cc2c[nH]cn2)NC(=O)[C@H](CCC(=O)O)NC1=O` [indium-111 labelled], the tissue uptake was 0.11 ± 0.05 %ID/g (C57 mice, B16/F10 lung metastatic melanoma, spleen; intravenous, 0.037 MBq, 4 h).
